Published values gathered from unrelated publications.
Cell line: MCF7

SMILES	test	setting	IC50 [µM]
C[C@H]1O[C@@H](O[C@H]2CC[C@@]3(C)[C@H](CC[C@@H]4[C@@H]3CC[C@]3(C)[C@@H](C5=CC(=O)OC5)[C@@H](O)C[C@]43O)C2)C[C@H](O)[C@@H]1O[C@@H]1O[C@H](CO)[C@@H](O)[C@H](O)[C@H]1O	cell growth or viability, MTT	48 h	0.26
CC(C)OC(=O)C(n1cccn1)n1cccn1.F[P-](F)(F)(F)(F)F.[Cu+].c1ccc(P(c2ccccc2)c2ccccc2)cc1	cell growth or viability, MTT	72 h	6.7
C=CC[P](c1ccccc1)(c1ccccc1)[Pt]([S]c1ccc(C(F)(F)F)cn1)([S]c1ccc(C(F)(F)F)cn1)[P](CC=C)(c1ccccc1)c1ccccc1	cell growth or viability, MTT		19.7
C[C@H]1O[C@@H](O[C@H]2CC[C@@]3(C)[C@H](CC[C@@H]4[C@@H]3C[C@@H](O)[C@]3(C)[C@@H](C5=CC(=O)OC5)[C@@H](O)C[C@]43O)C2)C[C@H](O)[C@@H]1O	cell growth or viability, MTT	48 h	1.14
CC(C)[C@H](NC(=O)[C@H](C(C)C)N(C)C)C(=O)N(C)[C@H](C(=O)N1CCC[C@H]1C(=O)N1CCC[C@H]1C(=O)O)C(C)C	cell growth or viability	48 h	0.96
CC(C)C[C@H](NC(=O)[C@H](CC(C)C)NC(=O)[C@H](CC(=O)O)NC(=O)[C@H](CCCCN)NC(=O)[C@H](Cc1ccccc1)NC(=O)CN)C(=O)N[C@@H](CCCCN)C(=O)N[C@H]1CSCc2cccc(c2)CSC[C@@H](C(=O)N[C@@H](CC(C)C)C(=O)N[C@H](C(=O)N[C@@H](CCCCN)C(=O)N[C@H](C(=O)N[C@H](C(=O)N[C@@H](CC(C)C)C(=O)N[C@@H](Cc2ccccc2)C(N)=O)C(C)C)[C@@H](C)O)C(C)C)NC(=O)[C@H](CCCCN)NC(=O)[C@H](C)NC(=O)[C@H](C)NC1=O	cell growth or viability, CCK-8		4.9
Cc1cc(C)c(-n2ccn(-c3c(C)cc(C)cc3C)c2=[Se])c(C)c1.[Cl][Ag]	cell growth or viability, MTT	72 h	2.8
C[C@@H](N)[C@H](O)CCCCCCCC(=O)CCCCCCCCCCCCCC[C@@H](O[C@@H]1O[C@H](CO)[C@@H](O)[C@H](O)[C@H]1O)[C@@H](N)CO	cell growth or viability, resazurin	96 h	5.77
CC(=O)c1nn(-c2ccc([N+](=O)[O-])cc2)c2nc3nc(-c4ccccc4)cc(-c4ccc5ccccc5n4)c3c(=O)n12	cell growth or viability, MTT	48 h	12.3
CC[C@H](C)[C@@H]([C@@H](CC(=O)N1CCC[C@H]1[C@H](OC)[C@@H](C)C(=O)N[C@H](C)[C@@H](O)c1ccccc1)OC)N(C)C(=O)[C@@H](NC(=O)[C@H](C(C)C)N(C)C(=O)OCc1ccc(NC(=O)[C@H](CCCNC(N)=O)NC(=O)[C@@H](NC(=O)CCCc2cn(CC(=O)N[C@@H](CCCNC(=N)N)C(=O)N[C@@H](CCCNC(=N)N)C(=O)N[C@@H](Cc3ccc4ccccc4c3)C(=O)N[C@H]3CSSC[C@@H](C(=O)N[C@@H](CCCNC(=N)N)C(N)=O)NC(=O)[C@H](CCCNC(N)=O)NC(=O)[C@H](CCCNC(=N)N)NC(=O)[C@H](Cc4ccc(O)cc4)NC(=O)[C@@H]4CCCN4C(=O)[C@@H](CCCCN)NC(=O)[C@H](CCCCN)NC(=O)[C@H](CCCNC(N)=O)NC(=O)[C@H](Cc4ccc(O)cc4)NC3=O)nn2)C(C)C)cc1)C(C)C	cell growth or viability, CCK-8	48 h	4.05
COc1cc(/C=C(\C#N)C(=O)Nc2nnc(C(F)(F)F)s2)ccc1OC(=O)N1CCN(C(=O)CCCC(=O)NCCCC[C@@H]2NC(=O)[C@@H](Cc3ccc(O)cc3)NC(=O)[C@H](CC(=O)O)NC(=O)CNC(=O)[C@H](CCCNC(=N)N)NC2=O)CC1	cytotoxicity, MTT	48 h	> 100
CC[C@H](C)[C@H](NC(=O)[C@H](CCCCN)NC(=O)[C@H](CCCCN)NC(=O)[C@H](C)NC(=O)[C@@H](NC(=O)[C@H](C)NC(=O)[C@H](CC(C)C)NC(=O)[C@H](CC(C)C)NC(=O)[C@H](C)NC(=O)[C@H](CCCCN)NC(=O)[C@H](CC(C)C)NC(=O)[C@H](CC(N)=O)NC(=O)[C@@H](N)CC(C)C)C(C)C)C(=O)N[C@@H](CC(C)C)C(N)=O	cell growth or viability, MTT		25.3
CC[C@H](C)[C@H](NC(=O)[C@H](CCCCN)NC(=O)[C@@H](NC(=O)[C@H](CCC(N)=O)NC(=O)[C@@H](N)CCCNC(=N)N)[C@@H](C)CC)C(=O)N[C@@H](Cc1c[nH]c2ccccc12)C(=O)N[C@@H](Cc1ccccc1)C(=O)N[C@@H](CCC(N)=O)C(=O)N[C@@H](CC(N)=O)C(=O)N[C@@H](CCCNC(=N)N)C(=O)N[C@@H](CCCNC(=N)N)C(=O)N[C@@H](CCSC)C(=O)N[C@@H](CCCCN)C(=O)N[C@@H](Cc1c[nH]c2ccccc12)C(=O)N[C@@H](CCCCN)C(=O)N[C@@H](CCCCN)C(N)=O	cytotoxicity		33.5
Cc1cc(C)c(S(=O)(=O)N2CC2C(N)=O)c(C)c1 (centres unmarked)	cell growth or viability, MTT	48 h	189
C[C@H](N)[C@@H](CCCCCCCCCCCCCCC(=O)CCCCCCC[C@@H](O)[C@@H](C)N)O[C@@H]1O[C@H](CO)[C@H](O)[C@H](O)[C@H]1O	cell growth or viability, resazurin	96 h	6.91
CN(C)CC1C(=O)OC2C1CCC1(C)CC1CCC1(C)OC21 (centres unmarked)	cell growth or viability, resazurin		16.9
O=C1N[C@H]2[C@H](CS[C@H]2CCCCC(=O)OCc2ccnc(-c3cc(COC(=O)CCCC[C@@H]4SC[C@@H]5NC(=O)N[C@@H]54)ccn3)c2)N1.O=S(=O)([O-])C(F)(F)F.[Ru+2].c1cc[cH-]c1.c1ccc(P(c2ccccc2)c2ccccc2)cc1	cell growth or viability, MTT	24 h	31.5
CCOc1cccc2c1[O][Pt-2]1([Cl])[N+](=C2)Cc2cccc[n+]21 (centres unmarked)	cell growth or viability, MTT		13.3
C#CCN[C@@H]1C=C[C@]2(O[C@H]([C@@H](CC)C(=O)[C@@H](C)[C@@H](O)[C@H](C)[C@@H]3O[C@@H]([C@@H](CC)C(=O)O)CC[C@@H]3C)[C@@H](C)C[C@H]2C)O[C@@]12CC[C@@](C)([C@H]1CC[C@](O)(CC)[C@H](C)O1)O2	cell growth or viability, resazurin	72 h	0.41
C=CC[P](c1ccccc1)(c1ccccc1)[Pt]([S]c1ncccn1)([S]c1ncccn1)[P](CC=C)(c1ccccc1)c1ccccc1	cell growth or viability, MTT		15.6
COC(=O)C1CN1S(=O)(=O)c1ccc(C)cc1 (centres unmarked)	cell growth or viability, MTT	48 h	30
COc1cc(C(c2c(C)nn(-c3ccccc3)c2O)c2c(C)nn(-c3ccccc3)c2O)cc(OC)c1OC	cell growth or viability, MTT	48 h	5.45
Cc1cc(C)c(N2CCN(c3c(C)cc(C)cc3C)C2=[Se])c(C)c1.[Cl][Au]	cell growth or viability, MTT	72 h	0.7
Cc1ccc(C(c2c(C)nn(-c3ccccc3)c2O)c2c(C)nn(-c3ccccc3)c2O)cc1	cell growth or viability, MTT	48 h	30.4
CC1(C)OC2C(COP(=O)(O)O)OC(n3cnc4c(=O)[nH]c(NC(=O)c5ccccc5)nc43)C2O1 (centres unmarked)	cell growth or viability		6.27
Cc1nn(-c2ccccc2)c(O)c1C(c1cccs1)c1c(C)nn(-c2ccccc2)c1O	cell growth or viability, MTT	48 h	28.2
CC(C)C[C@H](NC(=O)[C@H](C)NC(=O)[C@H](CCCCN)NC(=O)[C@H](C)NC(=O)[C@H](C)NC(=O)[C@@H]1CSCc2cccc(c2)CSC[C@H](NC(=O)[C@H](CCCCN)NC(=O)[C@H](Cc2ccccc2)NC(=O)CN)C(=O)N[C@@H](CC(C)C)C(=O)N[C@@H](CC(C)C)C(=O)N[C@@H](CCCCN)C(=O)N1)C(=O)N[C@H](C(=O)N[C@@H](CCCCN)C(=O)N[C@H](C(=O)N[C@H](C(=O)N[C@@H](CC(C)C)C(=O)N[C@@H](Cc1ccccc1)C(N)=O)C(C)C)[C@@H](C)O)C(C)C	cell growth or viability, CCK-8		22.9
Cc1nn(-c2ccccc2)c(O)c1C(c1ccc([N+](=O)[O-])cc1)c1c(C)nn(-c2ccccc2)c1O	cell growth or viability, MTT	48 h	35.6
C[C@]12CC[C@@H]3c4ccc(OS(=O)(=O)F)cc4CC[C@H]3[C@@H]1CCC2=O	cell growth	72 h	28.7

Repeated from above:
SMILES	test	setting	IC50 [µM]
Cc1nn(-c2ccccc2)c(O)c1C(c1ccc([N+](=O)[O-])cc1)c1c(C)nn(-c2ccccc2)c1O	cell growth or viability, MTT	48 h	35.6
C[C@]12CC[C@@H]3c4ccc(OS(=O)(=O)F)cc4CC[C@H]3[C@@H]1CCC2=O	cell growth	72 h	28.7
